Experimental data collected from several papers.
Numbered parts are unrelated; each lists some results of a single study.
Sequence of UniProt P51451 (whole entry, looked up): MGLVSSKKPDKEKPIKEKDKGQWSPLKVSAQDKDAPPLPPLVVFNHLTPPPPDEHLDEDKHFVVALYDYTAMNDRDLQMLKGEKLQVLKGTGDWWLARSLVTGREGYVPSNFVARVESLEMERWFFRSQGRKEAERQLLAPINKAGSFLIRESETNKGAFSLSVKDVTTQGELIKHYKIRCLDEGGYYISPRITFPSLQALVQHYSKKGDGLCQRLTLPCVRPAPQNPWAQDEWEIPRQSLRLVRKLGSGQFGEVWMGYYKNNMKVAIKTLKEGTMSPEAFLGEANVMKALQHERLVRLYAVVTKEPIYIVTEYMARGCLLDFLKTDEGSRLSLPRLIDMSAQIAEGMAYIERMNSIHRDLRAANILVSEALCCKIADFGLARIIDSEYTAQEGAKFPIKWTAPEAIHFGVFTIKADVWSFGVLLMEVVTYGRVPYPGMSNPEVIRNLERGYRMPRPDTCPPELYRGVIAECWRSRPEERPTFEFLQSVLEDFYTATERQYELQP
Sequence of UniProt P15735 (whole entry, looked up): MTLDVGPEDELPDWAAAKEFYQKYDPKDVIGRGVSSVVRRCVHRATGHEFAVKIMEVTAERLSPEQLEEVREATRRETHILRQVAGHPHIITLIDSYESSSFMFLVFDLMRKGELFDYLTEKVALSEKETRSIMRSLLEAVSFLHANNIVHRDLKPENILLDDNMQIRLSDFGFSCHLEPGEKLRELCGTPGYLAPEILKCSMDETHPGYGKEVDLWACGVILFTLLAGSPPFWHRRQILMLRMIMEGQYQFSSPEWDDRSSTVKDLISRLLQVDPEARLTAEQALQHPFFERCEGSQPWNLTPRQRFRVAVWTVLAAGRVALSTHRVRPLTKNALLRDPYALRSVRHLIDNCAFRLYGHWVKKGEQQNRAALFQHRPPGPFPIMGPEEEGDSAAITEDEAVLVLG
Sequence of UniProt O14757 (whole entry, looked up): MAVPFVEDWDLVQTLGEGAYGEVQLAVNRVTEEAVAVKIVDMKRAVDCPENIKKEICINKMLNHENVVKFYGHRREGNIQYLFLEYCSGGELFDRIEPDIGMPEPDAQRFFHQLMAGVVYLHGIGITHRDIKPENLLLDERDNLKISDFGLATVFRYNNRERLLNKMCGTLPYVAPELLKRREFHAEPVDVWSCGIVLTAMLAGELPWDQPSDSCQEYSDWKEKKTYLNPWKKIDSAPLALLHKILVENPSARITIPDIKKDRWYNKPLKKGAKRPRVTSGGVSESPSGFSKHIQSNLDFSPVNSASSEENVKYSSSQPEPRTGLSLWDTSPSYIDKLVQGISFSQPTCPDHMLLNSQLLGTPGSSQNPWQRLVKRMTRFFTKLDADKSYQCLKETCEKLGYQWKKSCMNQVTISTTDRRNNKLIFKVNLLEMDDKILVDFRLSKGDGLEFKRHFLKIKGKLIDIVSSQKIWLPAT

Series 1
Target: RNA binding protein fox-1 homolog 2, RRM domain, GST-SBP tag (RBFOX2, Homo sapiens, UniProt O43251-10, residues 100-194)
Method: RNA Bind-n-Seq
Form: RNA
Medium: in vitro
Concentration: 365 nM
Notes: natural RNA segment, single round, ends assumed
Relative to: no-protein control
Direction: higher = stronger binding
Constant ends, left off below: GGGAGUUCUACAGUCCGACGAUC … UGGAAUUCUCGGGUGCCAA
Construct (chain): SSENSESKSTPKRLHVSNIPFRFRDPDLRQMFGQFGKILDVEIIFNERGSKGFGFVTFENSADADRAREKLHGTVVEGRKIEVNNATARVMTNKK
| Sequence | RBNS enrichment (R) |
| --- | --- |
| CCAUUCAUCACAUCUGCCUCAUAGCCCCCAUCUUUGCUGUGCUGAUAGGAUUUAGUUGUGUUUAGGACAUUGCAGAUCUUCUAGAAGUUUCCCCUCAAUCAGGUUGAUAA | 0.6 |
| CGAUGGGCCAGGGGGCCUUACCAUUUCCCUGGGCUCUACUGCCUAGACAAACCCAGCCCGGACUCCAGCACACAAUGUUUGCACCCGUUCCCUGUCUGUCACCCCACAUG | 0.603 |
| CUCCGAGUGGGUGCUCAAGUCCCCCCCGCGACCCACCCGCGGAGUGGGGGGCCCCCUCCGCCACAAGGAAGCACAACCAGCUCGCCCUCCCCCUACCCGGGGCCGCAGGA | 0.417 |
| GUAAUCUGGUGUUGAACAACUAAGUCAGUAAUUGUCCUGUCUUUCAAACCAGUUAGCAACACAAUAUUUAUGUUUAAAUUUAUCAUUAAAGUACAACAGUCAUUUAACAC | 0.496 |
| CAUCAGCUCUGCCAAGCUGAGCCUGGCCAAGCUAGGUGGACAGACCCUUGCAGUGAUGUCCGUUUGUCCAGAUUCUGCCAGUCAUCACUGGACACGUCUCCUCGCAGCUG | 0.343 |
| UUCCUCCACCUCCUCCCUCCAGCGUUGCUCAGACCUCUGUCUUGGGAGAAAGGUUGAGAUAAGAAUGUCCCAUGGAGUGCCGUGGGCAACAGUGGCCCUUCAUGGGAACA | 0.257 |
| AAUUACGUCUUGAGUCUGGGAUUAUCCGCAUUGUAUUUAGUGCUUUGUAAUAAAAUAUGUUUUGUAGAACAUUAAGACUUAUAUACAGUUUUAGGGGACAAUUGAGAUGG | 0.932 |
| AUUCUAACAUUUACACUUUUGUUAUAAGCUAUUUAAAACCAGUAAGGAGACUUGAUAUUCAGAGAAUCAACAUGUUUUUUAAUGACUAACUGUAAAAGGCCCCUACACGU | 0.307 |

Series 2
Target: RING finger protein unkempt homolog, zinc fingers 1-6, GST-SBP tag (UNK, Homo sapiens, UniProt Q9C0B0, residues 30-357)
Sequence of UniProt Q9C0B0 (30-357, looked up): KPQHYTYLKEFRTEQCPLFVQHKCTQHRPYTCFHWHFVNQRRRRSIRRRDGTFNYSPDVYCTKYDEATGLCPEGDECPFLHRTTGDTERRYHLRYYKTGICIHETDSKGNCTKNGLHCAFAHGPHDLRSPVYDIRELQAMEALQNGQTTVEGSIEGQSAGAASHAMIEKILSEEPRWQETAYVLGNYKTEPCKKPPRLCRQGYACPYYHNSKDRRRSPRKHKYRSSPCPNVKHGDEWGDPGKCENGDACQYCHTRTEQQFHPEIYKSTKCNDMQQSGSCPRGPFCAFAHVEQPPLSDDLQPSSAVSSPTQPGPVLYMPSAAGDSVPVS
Method: RNA Bind-n-Seq
Form: RNA
Medium: in vitro
Concentration: not given
Notes: RNA with constant flanks, human and mouse sites, ends assumed
Relative to: input RNA pool
Direction: higher = stronger binding
Constant ends, left off below: GGGAGUUCUACAGUCCGACGAUC … CAACAGAGGAUUGAGCAUCA
| Sequence | bound/input enrichment |
| --- | --- |
| GGGAAUCCUGCUUGUUCGGCCCAGUUGCAGCAUGUCUCGCCACCCAUUUUUCCAGCUCAUUUAGCAAGUGUGUCAACUCCAUUGUUGUCCUCAAUGGAAAGUGUCAUAAAUCCAAAUAUA | 0.522 ratio |
| CACAACAGCAAAAUUAAAGUUGGGGCUGGAGAGAUGGCUCAGCGGUUAAGAGCUCUGACUGUUCUUUCAGUGGUCAUGAGUUCAAAUCCCAGCAACCACAUGGUGGCUCACAAUUAUCUG | 0.113 ratio |
| UUCAGGAAGGGCCGAGAAGACAGAGCUCCACUCCUGAAGACCUUCAGCUUCUUGGGCUUUGAGAUUGUACGUCCAGGCCAUCCCUGUGUCCCCUCUCGGCCAGAUGUGAUGUUCAUGGUU | 0.111 ratio |
| AGGGUUGGCAUGAGGAGGGGGAAGCUUUUUUGAAUCGCUUUUUGAUCACAUAAUCUGCCAUUUUAAGAGUAAGAUUUGCUUUAUGGAAAUCAAUUCAUUAAUAAAAAAUGAUAUUCAAGU | 0.25 ratio |
| GAGGUAGAUCAAGACCUCAUUCCACUGUUAGUGAAAGAAACGGAAGCAAGAUUUCCAGAUGUAGCAAGUGGAUAUGUUGAAGAAAUAAUUCAUUUGAAAAAUUACUAUGAUUUGAAUGUA | 0.311 ratio |
| AAAAAGAUAGACCUGCAGAAAAAACAAACUCAAAGAAAUGUGUUCAGAUGUAAUGUAAUUGGAGUGAAAAACUGUGGGAAAAGUGGAGUUCUUCAGGCUCUUCUUGGAAGAAACUUAAUG | 0.302 ratio |
| AGUUCCAGAACCAGAAUCAGAAAUGAAGAUGAGACUACCAAGACGAGCCAAAACCGCAGCACUAGAAAAAAGUAAACUUAACCUUGCCCAAUUUCUCAAUGAAGAUCUAAGUUAGGAAAG | 2.6 ratio |
| UCUCGGGAACAGCUUGCUAUUGCAGAGUUUGCAAGAUCUCUGCUUGUGAUUCCUAAUACACUGGCAGUGAAUGCUGCCCAGGACUCCACCGACCUGGUUGCCAAGUUAAGAGCUUUUCAC | 0.118 ratio |

Series 3
SMILES: CCCOc1ccc([C@@H]2[C@@H](C(=O)O)[C@H](c3ccc4c(c3)OCO4)CN2CC(=O)Nc2c(CC)cccc2CC)cc1
Read-out: cell-free assay
Method: competition with immobilised ligand
Concentration: 1 µM
| target | remaining binding [%] |
| --- | --- |
| BLK (Homo sapiens, UniProt P51451) | 96 |
| PHKG2 (Homo sapiens, UniProt P15735) | 74 |
| CHEK1 (Homo sapiens, UniProt O14757) | 86 |

Mixed results
Medium: hydrocarbon/water
| Structure (SMILES) | logD |
| --- | --- |
| CCC[C@H]1NC(=O)CSC[C@@H](C(=O)OCC)N(C)C(=O)[C@H](CC(C)C)NC(=O)[C@H](C)N(C)C(=O)[C@@H](CC(C)C)NC(=O)[C@H](C)N(C)C(=O)[C@@H]2CCCN2C(=O)[C@@H](CC(C)C)NC(=O)CN(CCC)C1=O | 1.22 |
| CCOC(=O)[C@@H]1CSCC(=O)N[C@H](CC)C(=O)N(C)[C@@H](C)C(=O)N[C@@H](CC(C)C)C(=O)N2CCC[C@H]2C(=O)N(CC)CC(=O)N[C@@H](CC(C)C)C(=O)N(C)[C@H](C)C(=O)N[C@@H](CC(C)C)C(=O)N1C | -0.348 |

Some of these lines once more (series 2):
| Sequence | bound/input enrichment |
| --- | --- |
| AAAAAGAUAGACCUGCAGAAAAAACAAACUCAAAGAAAUGUGUUCAGAUGUAAUGUAAUUGGAGUGAAAAACUGUGGGAAAAGUGGAGUUCUUCAGGCUCUUCUUGGAAGAAACUUAAUG | 0.302 ratio |
| AGUUCCAGAACCAGAAUCAGAAAUGAAGAUGAGACUACCAAGACGAGCCAAAACCGCAGCACUAGAAAAAAGUAAACUUAACCUUGCCCAAUUUCUCAAUGAAGAUCUAAGUUAGGAAAG | 2.6 ratio |
